Measurements collected from several papers.
Lines come from different studies, so protocols differ. “And” joins repeats or separate records; there may be more than shown. ± marks the error that the study gave. Converted amounts (≈) assume the structure as drawn.
UniProt P30530, sequence (whole entry, looked up): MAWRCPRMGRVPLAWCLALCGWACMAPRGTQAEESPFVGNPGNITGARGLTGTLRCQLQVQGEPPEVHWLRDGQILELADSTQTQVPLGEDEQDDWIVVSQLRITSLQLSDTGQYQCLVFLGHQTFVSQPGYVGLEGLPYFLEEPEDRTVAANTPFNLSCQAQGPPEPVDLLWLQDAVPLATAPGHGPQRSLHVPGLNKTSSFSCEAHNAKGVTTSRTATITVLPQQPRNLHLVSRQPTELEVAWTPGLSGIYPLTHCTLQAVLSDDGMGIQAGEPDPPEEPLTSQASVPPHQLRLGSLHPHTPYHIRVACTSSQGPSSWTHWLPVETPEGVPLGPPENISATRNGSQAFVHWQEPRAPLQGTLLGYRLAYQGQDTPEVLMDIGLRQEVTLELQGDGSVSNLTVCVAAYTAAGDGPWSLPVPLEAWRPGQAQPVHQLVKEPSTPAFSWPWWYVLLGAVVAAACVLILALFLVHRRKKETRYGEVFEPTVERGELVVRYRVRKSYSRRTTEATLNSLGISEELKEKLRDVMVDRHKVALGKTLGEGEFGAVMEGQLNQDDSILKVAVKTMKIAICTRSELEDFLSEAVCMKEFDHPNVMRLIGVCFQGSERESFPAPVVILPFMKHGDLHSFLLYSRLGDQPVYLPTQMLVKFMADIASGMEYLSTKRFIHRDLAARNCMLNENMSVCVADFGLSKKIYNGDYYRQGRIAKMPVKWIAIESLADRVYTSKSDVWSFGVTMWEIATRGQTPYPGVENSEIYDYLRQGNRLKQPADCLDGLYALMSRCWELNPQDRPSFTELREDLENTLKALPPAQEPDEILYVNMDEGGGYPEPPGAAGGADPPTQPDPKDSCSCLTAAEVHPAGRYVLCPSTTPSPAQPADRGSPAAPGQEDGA

`Cc1cccc2c1N(C(=O)n1ccnn1)CC2` has a germination rate of 82.4% and 17.4% and 72.4% and 73.2% and 82.8% and 59.4% (Arabidopsis thaliana; wild type, seeds; 30 µM, high ambient temperature).
`C=CC(=O)Nc1cccc(Cn2ncc3cnc(Nc4cnn(CCOC)c4)nc32)c1` has a binding of 100% (human MRCKA; KINOMEscan; 100 nM; relative to: control).
For `C=C(NC(=O)c1csc(-c2nc3c(cc2O)-c2nc(cs2)C(=O)NC(C(C)O)C(=O)NC(=C(C)OC)c2nc(cs2)C(=O)NC2c4nc(cs4)C(=O)NC(COC(=O)c4c5c6c(cccc6n4O)COC(=O)C(OC4CC(C)(O)C(N(C)C)C(C)O4)C2OC5)c2nc-3cs2)n1)C(N)=O` (stereo not shown), “lung bacterial load” read 3.8 log CFU/g (Streptococcus pneumoniae; -25, immunocompromised mice, lung infection; 8 mg/kg/day, twice daily, 24 h post-dose).
`CCN(CC)CC(=O)Nc1cccc(-n2cc(-c3ccc4ccc(-c5cn(-c6cccc(NC(=O)CN(CC)CC)c6)nn5)cc4c3)nn2)c1` has a fold regulation of -1.8 (RCC4; PCR angiogenesis array, item: ANPEP; 5 x IC50, 4 h, normoxia; relative to: untreated).
For `COC(=O)[C@H](C)NC(=O)c1ccccc1NC(=O)[C@H](Cc1ccc(OC(C)(C)C)cc1)N(C)C(=O)[C@@H](NC(=O)OCc1ccccc1)C(C)C`, the fold potentiation was 32 (Candida albicans; potentiator, broth microdilution; ATCC 90029; 16.0 µg/mL, with: amphotericin B; relative to: amphotericin B alone).
For `N=C(N)NCCC[C@@H]1NC(=O)[C@H](CCCNC(=N)N)NC(=O)[C@@H](CCCNC(=N)N)NC(=O)[C@@H](CCCNC(=N)N)NC(=O)[C@@H](C(c2ccccc2)c2ccccc2)NC(=O)[C@H](Cc2c[nH]c3ccccc23)NC(=O)[C@@H](C(c2ccccc2)c2ccccc2)NC1=O`, “reduction of viable cells” read greater than 95% (Candida albicans; ATCC 60193; 4 x MIC, 12 h).
For `C=C[C@]1(C)C[C@@H](OC(=O)CSc2ccc(NC(=O)c3ccco3)cc2)[C@]2(C)[C@H](C)CC[C@]3(CCC(=O)[C@H]32)[C@@H](C)[C@@H]1O`, “lung mycoplasma count” read 2.1 log10 CFU/mL and 3.13 log10 CFU/mL and 3.21 log10 CFU/mL and 4.57 log10 CFU/mL and 3.9 log10 CFU/mL and 3.65 log10 CFU/mL and 4.38 log10 CFU/mL and 3.92 log10 CFU/mL (Mycoplasma gallisepticum; infected chickens, lung; intramuscular, 60 mg/kg daily x3, 72 h).
`CC1(C)C(NC(=O)C(=NOC2(C(=O)O)CCC2)c2csc(N)n2)C(=O)N1OS(=O)(=O)O` (stereo not shown) gave an MIC of no more than 0.03 mg/L (Providencia rettgeri; agar dilution; ATCC 31052, susceptible).
Under “log2 fold change”, `COC1CN([C@H]2CC[C@H]([C@@]3(C)Oc4c(Cl)cc(C(=O)NCc5c(SC)cc(C)[nH]c5=O)c(C)c4O3)CC2)C1` is recorded as 0.0336 (RNA-seq, item: OSGIN2 mouse homolog; mouse, HT-1376 xenograft, whole blood; dose not given; relative to: vehicle).
`CN1CCCNC(=O)c2cccc(c2)C(=O)NCCCN(C)CCCNc2cccc3c2C(=O)c2cccc(c2C3=O)NCCC1` — result for “log2 fold change”: -0.563 (SAS; RNA-Seq, item: GMPS mRNA; 1 µM, 6 h; relative to: untreated cells).
The IC50 of `Cc1nn(-c2cccc(N)c2)c(=O)c2cnc(Nc3ccc(N4CCNCC4)cc3)nc12` is reported as greater than 10 µM (Tyrosine-protein kinase receptor UFO (AXL, Homo sapiens, UniProt P30530); kinase activity, inhibitor, SelectScreen kinase profiling).
With `C#CCNC(=O)C(C)(C)O/N=C(\C(=O)N[C@@H]1C(=O)N(S(=O)(=O)O)[C@H]1C)c1csc(N)n1` the MIC was 4 mg/L (≈ 8.47 µM) (Citrobacter freundii; agar dilution; ATCC 43864 susceptible).
`Cc1cc(C(=O)Nc2nc3cccc(C)c3n2[C@H]2CCCCN(C(=O)/C=C/CN(C)C)C2)ccn1`: “minimum cidal concentration” 50 µM (Trypanosoma brucei; wash-off; 24 h).
`CC1(C)[C@H](NC(=O)/C(=N\OCC(=O)N2CCC(C(=O)O)CC2)c2csc(N)n2)C(=O)N1OS(=O)(=O)O` gave an MIC of 0.125 mg/L (≈ 0.228 µM) (Providencia rettgeri; agar dilution; ATCC 31052, susceptible).
With `CC(C)CC(c1c[nH]c2ccccc12)c1c[nH]c2ccccc12` the IC50 was greater than 50 µM (Clostridioides difficile; microbial growth, absorbance).
For `FC(F)(F)c1cccc(CNc2nc(NC3CCN(Cc4ccccc4)CC3)c3nc[nH]c3n2)c1`, “log2 fold change” read 0.368 (Cryptococcus neoformans; RNA-seq, item: CNAG_05316; wild type; 48 µg/mL, 3 h; relative to: untreated wild type).
`CNS(=O)(=O)Nc1nccc(Cc2c(C)c3ccc(Oc4ncccc4F)cc3oc2=O)c1F` has an IC50 of 0.0412 µM (LS-1034; cell viability; 7 days).
`CCCCCCCCCC(=O)N[C@@H](Cc1c[nH]c2ccccc12)C(=O)N[C@H](CC(N)=O)C(=O)N[C@@H](CC(=O)O)C(=O)N[C@@H]1C(=O)NCC(=O)N[C@@H](CCCNC(=O)OC2/C=C/CCCCC2)C(=O)N[C@@H](CC(=O)O)C(=O)N[C@H](C)C(=O)N[C@@H](CC(=O)O)C(=O)NCC(=O)N[C@H](CO)C(=O)N[C@@H]([C@H](C)CC(=O)O)C(=O)N[C@@H](CC(=O)c2ccccc2N)C(=O)O[C@@H]1C` (stereo partly shown) — result for “peak heat flow”: 0 µW (Staphylococcus aureus; planktonic bacterial growth, isothermal microcalorimetry; MRSA; 3.0 µg/mL, 24 h, 37 °C).
`CC1C=CC=CC(C)C2C=CC3CC(C)(O)C(Cl)C(C)C3C2C(=O)C(Cl)(Cl)C(=O)C(C)C(=O)O1` (stereo not shown) has an MIC50 of 0.1 mg/L (≈ 0.188 µM) (Staphylococcus aureus; MSSA and MRSA clinical isolates; 180 isolates).
The EC50 of `Cc1[nH]c2ccccc2c1CC(=O)N[C@@H](Cc1ccccc1)C(=O)N(C)c1ccccc1` is reported as 0.5 ± 0.1 µM (human immunodeficiency virus 1; viral replication; NL4-3 with subtype AE gag/pol).
For `Cc1ncsc1-c1ccc(C(C)NC(=O)C2CC(O)CN2C(=O)C(NC(=O)CCCCCCCCCCN2CCCC(Nc3ncc(Cl)c(Nc4ccccc4S(=O)(=O)C(C)C)n3)C2)C(C)(C)C)cc1` (stereo not shown), “log2 fold change” read -1.23 (22Rv1; RNA-seq, item: TCAF1 mRNA; concentration not given; relative to: DMSO).
For `NCCOCCO.O=C(O)C(Cl)Cl`, the herbicidal inhibition was 0% (Xanthium sibiricum; 15 mg/mL, 21 days, pre-emergence, greenhouse).
`O=Cc1c[nH]c2ccccc12` gave an IC50 of greater than 50 µM (Clostridioides difficile; microbial growth, absorbance).
`CC(C)OCCOCc1ccc(OCC(O)CN(N=O)C(C)C)cc1` (stereo not shown): “revertant fold increase” 1 fold (Escherichia coli; Ames test; WP2 uvrA; 50 µg/plate, 30 % hamster S9; relative to: solvent control).
For `CC(C)=CCC/C(C)=C/CC/C(C)=C/Cc1c(O)cc(CO)c(C=O)c1O`, the Vmax was 8.6 nmol/min/mg (Stachybotrys chartarum; 30 min, pH 7.0, 25 °C).
`O=C(Nc1cccc(CNc2ncccn2)c1)c1cc(-c2ccccc2)n(-c2ccccc2)n1` gave an inhibition of less than 50% (Dengue virus; viral replication, inhibitor, imaging; Vero, DENV2; 12.5 µM).
`COC1C=COC2(C)Oc3c(C)c(O)c4c(c3C2=O)C2=NC3(CCN(CC(C)C)CC3)NC2=C(NC(=O)C(C)=CC=CC(C)C(O)C(C)C(O)C(C)C(OC(=O)Nc2cnccn2)C1C)C4=O` (stereo not shown) gave an IC90 of 0.075 µM (Mycobacteroides abscessus; bacterial growth; subsp. abscessus Bamboo).
`CC(C)(C)NCC(SS(=O)(=O)O)c1ccccc1` (stereo not shown): “female worms recovered” 3 worms per mouse and 1 worms per mouse (Schistosoma mansoni; mice; 100 mg/kg x2 from day 42, perfusion day 56).
For `c1ccc(CN2CCOCCOCCN(CCCCCCCCCCCCN3CCOCCOCCN(CCCCCCCCCCCCN4CCOCCOCCN(Cc5ccccc5)CCOCCOCC4)CCOCCOCC3)CCOCCOCC2)cc1`, the FIC index was 0.57 (Klebsiella pneumoniae; ATCC BAA-2146; 2.5 µM, with: tetracycline).
With `COc1ccccc1NC(=O)OC1C(C)C(OC)C=COC2(C)Oc3c(C)c(O)c4c(c3C2=O)C2=NC3(CCN(CC(C)C)CC3)NC2=C(NC(=O)C(C)=CC=CC(C)C(O)C(C)C(O)C1C)C4=O` (stereo not shown) the IC90 was 0.095 µM (Mycobacteroides abscessus; intracellular growth, visual read; THP-1 derived macrophages, ATCC 19977).
`COC(=O)c1cnc(-c2cnccn2)cc1C(=O)OC.COC(=O)c1cnc(-c2cnccn2)cc1C(=O)OC.F[P-](F)(F)(F)(F)F.[Ag+]` gave an inhibition of 36 ± 3% (Candida albicans; biofilm formation, crystal violet staining; ATCC 10231; 0.87 µg/mL).
`CC(O)CNCC(C)O.O=C(O)C(Cl)Cl` (stereo not shown) has a herbicidal inhibition of 0% (Xanthium sibiricum; 15 mg/mL, 21 days, post-emergence, greenhouse).
`CC(C)=CCc1cc(C(=O)/C=C/c2ccc(O)cc2)c(O)cc1O`: “substrate inhibition constant Ki” 34.3 ± 5.68 µM (phase I metabolism; mouse liver microsomes).
The IC50 of `c1ccc2c(Cc3c(-c4c[nH]c5ccccc45)[nH]c4ccccc34)c[nH]c2c1` is reported as greater than 50 µM (Clostridioides difficile; microbial growth, absorbance).
With `CC(C)[C@H](NC(=O)OCc1ccccc1)C(=O)N(C)[C@@H](Cc1ccc(OC(C)(C)C)cc1)C(=O)Nc1ccccc1C(=O)N[C@@H](C)C(=O)O` the fold potentiation was 4 (Candida albicans; potentiator, broth microdilution; ATCC 90029; 2.0 µg/mL, with: amphotericin B; relative to: amphotericin B alone).
For `CN(C(=O)[C@H](Cc1ccccc1)NC(=O)Cc1c[nH]c2ccc(O)cc12)c1ccc(Cl)cc1`, the EC50 was 0.018 ± 0.004 µM (human immunodeficiency virus 1; viral replication; NL4-3 with subtype AE gag/pol).
With `CN(Cc1ccc(C2(C(F)(F)F)CCC2)cc1)Cc1cccc2ccccc12` the inhibition zone was 27.8 mm (Trichophyton mentagrophytes; microbial growth, disc diffusion; ATCC18748; 0.064 µg/mL, 72 h).
`CNCc1ccc2c(c1)N(C(=O)OCc1c(F)c(F)c(F)c(F)c1F)[C@H](CNC(=N)N)[C@H]2NC(=O)C(=O)Nc1ccc(Cl)c(F)c1` has an IC50 of 0.197 µM (HIV-1; pseudovirus infection, Env pseudovirus neutralisation; TZM-bl, clade B T/F isolate d15_410_787).
For `Cc1cc(N2CC[C@@](C#N)(C3(C)CC3)C2=O)cc(C(=O)NCc2cc(F)cc(-c3cnn(C)c3)c2)n1`, the parasitaemia was 0.01% (Plasmodium falciparum; Pf3D70087/N9, humanized SCID mouse; 10 mg/kg, 4-day test, day 0 post-infection).
`Nc1ncc(-c2cc(-c3cnn(CC(F)(F)F)c3)ncc2F)nc1C(=O)NC1CNCC(F)C1` (stereo not shown) gave a remaining binding of 100% (DCAMKL2; KINOMEscan; 1 µM; relative to: DMSO control).

A few entries again:
`COC1C=COC2(C)Oc3c(C)c(O)c4c(c3C2=O)C2=NC3(CCN(CC(C)C)CC3)NC2=C(NC(=O)C(C)=CC=CC(C)C(O)C(C)C(O)C(C)C(OC(=O)Nc2cnccn2)C1C)C4=O` (stereo not shown) gave an IC90 of 0.075 µM (Mycobacteroides abscessus; bacterial growth; subsp. abscessus Bamboo).
`CC(C)(C)NCC(SS(=O)(=O)O)c1ccccc1` (stereo not shown): “female worms recovered” 3 worms per mouse and 1 worms per mouse (Schistosoma mansoni; mice; 100 mg/kg x2 from day 42, perfusion day 56).
For `c1ccc(CN2CCOCCOCCN(CCCCCCCCCCCCN3CCOCCOCCN(CCCCCCCCCCCCN4CCOCCOCCN(Cc5ccccc5)CCOCCOCC4)CCOCCOCC3)CCOCCOCC2)cc1`, the FIC index was 0.57 (Klebsiella pneumoniae; ATCC BAA-2146; 2.5 µM, with: tetracycline).
With `COc1ccccc1NC(=O)OC1C(C)C(OC)C=COC2(C)Oc3c(C)c(O)c4c(c3C2=O)C2=NC3(CCN(CC(C)C)CC3)NC2=C(NC(=O)C(C)=CC=CC(C)C(O)C(C)C(O)C1C)C4=O` (stereo not shown) the IC90 was 0.095 µM (Mycobacteroides abscessus; intracellular growth, visual read; THP-1 derived macrophages, ATCC 19977).
